# Experimental data gathered from unrelated publications.
# Parts stem from different laboratories: compare values within a part only.

# Study 1 — method: protein binding microarray; form: double-stranded DNA, one strand shown; matrix: in vitro; tested at: not given; reference: not given; reading: higher = stronger binding
# Target: Histone acetyltransferase KAT6A, winged helix 2, GST fusion (KAT6A, Homo sapiens, UniProt Q92794, residues 85-181)
# Setting: 8-mer, flanks averaged, mean of 2 arrays, mostly near background
# Target sequence (chain): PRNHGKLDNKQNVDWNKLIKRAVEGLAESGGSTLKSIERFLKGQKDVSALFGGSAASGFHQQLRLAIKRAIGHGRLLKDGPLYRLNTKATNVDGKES
Oligonucleotide,E-score
ATGGCTGG,-0.0522
GAGGGGCC,0.0647
CAACCTGA,-0.0549
AGGTGTTC,-0.107
AACAATAG,-0.137
TCTGATAA,0.0424
GCGTAGAC,-0.122
TAAAGGTA,-0.0935
GCAACTCC,0.0568
GGGGAACA,0.0235
CCCCATAC,-0.131
ATCTGATA,-0.011
AGGGAAAA,0.0184
AACAATTG,-0.0302
AACTCAAA,0.0437
CCGCTCGC,0.152
CCACGTAG,-0.274
ATGACATA,-0.0313
CGTGGCAC,0.102
TACAACTA,-0.038

# Study 2 — method: protein-binding microarray; form: double-stranded DNA, one strand shown; matrix: in vitro; tested at: 2200 nM top; setting: 60-bp whole probe; with: salmon DNA 0.4 mg/ml; reference: random background probes; reading: higher = stronger binding; constant ends, left off below: GCCTAGCAC … GTCTTGATTCGCTTGACGCTGCTG
# Target: Interferon regulatory factor 7, full length, phosphomimetic (IRF7, Homo sapiens, UniProt Q92985, residues 1-503, S471D/S472D/S475D/S476D/S477D/S483D/S484D/S487D)
# Target sequence (chain): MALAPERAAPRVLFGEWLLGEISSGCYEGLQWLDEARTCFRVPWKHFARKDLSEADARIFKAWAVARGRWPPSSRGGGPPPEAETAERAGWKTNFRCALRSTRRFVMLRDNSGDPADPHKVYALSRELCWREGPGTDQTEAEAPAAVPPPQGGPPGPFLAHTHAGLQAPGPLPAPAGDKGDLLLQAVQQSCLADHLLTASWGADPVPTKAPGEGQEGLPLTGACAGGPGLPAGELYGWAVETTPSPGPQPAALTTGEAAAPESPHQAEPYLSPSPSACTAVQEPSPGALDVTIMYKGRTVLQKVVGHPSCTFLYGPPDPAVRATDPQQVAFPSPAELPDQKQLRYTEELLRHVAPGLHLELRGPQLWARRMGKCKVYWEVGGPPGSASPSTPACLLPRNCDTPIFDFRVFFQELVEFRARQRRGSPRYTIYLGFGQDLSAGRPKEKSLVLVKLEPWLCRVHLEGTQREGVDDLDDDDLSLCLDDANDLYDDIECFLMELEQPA
Oligonucleotide,fitted relative affinity [z-score]
TCAACTTTCTCTGCTCTTACTGTGCTA,1.7
TTAGATCTCAGTCTCTATTAGTGCTAG,0.266
TATCAGGGCATCCCCTTGAAGTGCTAG,-0.609
TCAACACTAGTTTTTACACTGTGCTAG,0.58
GTCGGTATCCTTCTCCTGACGTGCTAG,1.83
TCAAGCATTACTTTAGGACTGTGCTAG,-0.0853
TTAGATACCAGACTGGATTAGTGCTAG,-0.00442
GACGAACTGTGGTATCGAGACGTGCTA,-0.118
GAGGGACTGGACTATCGGGACGTGCTA,-1.01
CTTTCTCTGCTCTTTTCAACAGTGCTA,2.02

# Study 3 — method: RNA Bind-n-Seq; form: RNA; matrix: in vitro; tested at: 365 nM; reference: no-protein control; reading: higher = stronger binding
# Target: RNA binding protein fox-1 homolog 2, RRM domain, GST-SBP tag (RBFOX2, Homo sapiens, UniProt O43251-10, residues 100-194)
# Setting: natural RNA segment, single round, ends assumed
# Constant ends, left off below: GGGAGUUCUACAGUCCGACGAUC … UGGAAUUCUCGGGUGCCAA
# Target sequence (chain): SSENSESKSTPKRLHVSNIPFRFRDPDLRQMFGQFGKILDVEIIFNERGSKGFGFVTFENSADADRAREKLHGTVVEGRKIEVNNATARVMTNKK
Oligonucleotide,RBNS enrichment (R)
CAGAAUUUGUGCUUUGGUUUGCCCUGCGCAGCCUUGGAGCAUCAUAAGCCUGGCUGGUGGGCAUAGUUAUUCUCAGCAUUGUGGUGGCAAAUGACGUUGGUUCUAGAGAC,3.59
UUCAUUGUAGCACUAUUGGUAAUAAAAGAACAGAUGUUUGUGCAUUUUUAUGUGAAGAUCCUUCUCGUAUUUCAUUUGGAAGGAUGAGCGAGGUCUGCUUCUUUCUUUUU,0.478
UAAAACUUCGUUAGAAGAAAGUAAUAGUAUUAUUUGCAGAAAGCCAGUCGAUCACAGCCAUUACCAAUAAGUUCAACCUCAAAGUACUUCAUAAAAAUCUGACCAAUCUA,0.447
CACACCAGAGGUUGUAGACCUAUAUCUGGUAUCCAGAACCUGACAGGGAAACAGUUCUUGGUCCCCCUUUUUUGGGGUCAGCAUUUUAAAAAUGCAAAGCCUAUAUGUUG,0.389
GAAGUAAGCACAGCCCAUCUCCUGUUCACAUUCUCUAGACCGUCAUCACCUUUGCCCUGCUCUGGGGGACAGACAUGACAGUAAAAGUGUCCCGGGACUCUUUCCGUUCA,0.35
CUGACAUUUUUUUCAGUUAUGUGAAUGAAUGGAAACCAACAGCUGCUGCAAACACUGUUUUUCCAAGAAGGCUACACUCAGAACCUAACCAUUGCCAACCAUUUCAGUAU,0.51
CGUGAUUCUUACUCGGCAUCCUCCAUUCCCCAAACUCCCUCCUCCCUGUUAAAUGUCAACCUAGACCUGGACCUGGGUGGGAGGAAACUGUAGCCUGAGUGUCCACAGGG,0.318
UUGUUUUCAUUGUUUGCAGCGGAUCACUGGACAUCAAAGAUUCAUUGCACUUAUGAACAAGGAACCUUCUUUUCAAUUUCUGUGUAAUUUGCAAGGCUGUACAAUGUGUG,0.659
GGGGCCUGAUGGACACCUUUCCCGGGCGUCUGCAGCUGCCCUGCCCGUGCCCGCCUGCAGUGGUUGGAGACGGGAGUGGCCCUUCGGCUCCCGAGCUCCCUCUGGGGACG,0.331
UUAGCUUAUUAGAACUCUUGGUGGAGGGUGCGUACACACAUUCCAGAAAAGGCUUCACUCGCUGGGAACGUCAACCCAGCGAGAAAGGAGGGGAAGCCCCUUCUCCGGGG,0.229
AUAGCCGUGUGUAGUGUCGCCAGAGAAGGUGGAGUUUAAGAAUGGUCUCAGUGUUAUUAAUGAGAAAAAGUUCUGUCAUUCAGGAAAAAAAAGCAAAAAACGUGAGGUUG,4.3
AAGCCAUUUCAGAGUUUGGCUGCUGCUCUGACCCUGCUGUGGUACAAAAAACAUGGAUUUUUUUUUUUUUAACUGGAGUAAUACCAAAUUCCCUUUAGAAGCUUGAAGUU,0.686

# Study 4 — method: protein-binding microarray; form: double-stranded DNA, one strand shown; matrix: in vitro; tested at: 0.8 µM; setting: whole 60-bp probe, no competitor; reading: higher = stronger binding; constant ends, left off below: … GTCTTGATTCGCTTGACGCTGCTG
# Target: Centromere-binding protein 1, full length, N-terminal tag (CBF1, Saccharomyces cerevisiae, UniProt P17106, residues 1-351)
# Sequence of UniProt P17106 (whole entry, looked up): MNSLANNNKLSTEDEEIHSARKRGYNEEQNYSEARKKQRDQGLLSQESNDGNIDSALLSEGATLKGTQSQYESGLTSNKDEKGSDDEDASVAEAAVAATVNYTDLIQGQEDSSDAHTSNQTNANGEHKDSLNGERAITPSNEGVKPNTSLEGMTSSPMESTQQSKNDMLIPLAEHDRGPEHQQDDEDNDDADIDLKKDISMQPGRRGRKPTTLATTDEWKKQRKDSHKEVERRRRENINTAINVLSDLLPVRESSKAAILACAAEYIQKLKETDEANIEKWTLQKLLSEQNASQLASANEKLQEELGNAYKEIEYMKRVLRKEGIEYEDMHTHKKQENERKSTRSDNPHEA
Oligonucleotide,fluorescence intensity [a.u.]
CTATTCTAGTAGCTTTACGTGACGAATTAAACCTTC,671
CCTAACTACTATAAGAACGTGAAATAGCTTCGTACA,547
TGTACGAAGCTATCAAGCGTGTCTATAGTAGTTAGG,532
GAACCCACGTCCAATCAGCAGAGAGAAGCTGTTTAG,1690
GAATTGATTTTTTTTCACCTGTTCATTTTTTTTTAG,580
CTAGCGCGGATGTGGCACATGCTGTTGAGATCTTTC,764
GAATTCATATAAGATCACGTTGTTTATATGAATTAG,4400
CTAGCACCCTTTGGACTCGTGATTCCGTGGAAATTC,1020
CTAACGCATGGAAAACACGTGACCTGAAAGTCATTC,21400
CTACCTAGGAAAGTTAACGTGGTCATACTTTTTTTC,611
CTACTGCGGCTCCGCCTCGTGCTGCTCAAGGGCTTC,597
GAACGCGCAACCGCGCACGTAATTATTTTTACTTAG,522
CTATGAAACAATCGGCATGTGGTTTATACCTCTTTC,593
CTATCCTACATAAATCATGTGACTTATTTATTTTTC,8760
GAAGTGTTAATAATTAAGGTGACCTAAGCCCAGTAG,539
CTAGCTAACGATCAACACCTGACCGAGATAACATTC,1970
GAATTCTATATACATGATGTATCGGAAGCTGTATAG,543
CTATTTATGGCTTTCCATGTGGTTAAAGAAAAATTC,614
CTAATTCGTTTTAATCATGTGTCAGTATGAGATTTC,1200
GAAGTAATTAATAGTGACATGAGTTGCTATGGTTAG,522
GAAATGGCGTGGGGTGGGGTGATTATCTAGACCTAG,573
GAAGAGGTGAAATTTCAGCTGACAGCGAGTTTCTAG,525
GAATGATGTGCACGTGACATTGCACCCGGGTAATAG,29900
GAAAGGAAGAGATACCTCACGTCTGTAATATCTTAG,511
GAAAGTATGGCGAAGAACGTGGCGCGCTGGAGTTAG,536

# A few entries again (study 2):
Oligonucleotide,fitted relative affinity [z-score]
TCAAGCATTACTTTAGGACTGTGCTAG,-0.0853
TTAGATACCAGACTGGATTAGTGCTAG,-0.00442
GACGAACTGTGGTATCGAGACGTGCTA,-0.118
GAGGGACTGGACTATCGGGACGTGCTA,-1.01
CTTTCTCTGCTCTTTTCAACAGTGCTA,2.02
